Measurements pooled from the literature.
Every numbered part comes from another study and shows a few of its results, in no order. Changes are numbered by the printed parent chain.
Chain of UniProt Q9ZSY8 (whole entry, looked up): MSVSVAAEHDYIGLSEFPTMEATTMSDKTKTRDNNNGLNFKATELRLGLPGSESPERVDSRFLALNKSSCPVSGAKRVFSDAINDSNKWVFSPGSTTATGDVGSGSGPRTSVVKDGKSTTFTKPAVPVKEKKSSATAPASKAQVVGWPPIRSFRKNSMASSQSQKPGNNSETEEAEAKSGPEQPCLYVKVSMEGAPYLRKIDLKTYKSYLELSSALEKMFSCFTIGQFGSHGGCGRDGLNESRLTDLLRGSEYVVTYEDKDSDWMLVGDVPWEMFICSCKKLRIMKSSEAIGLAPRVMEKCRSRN

Sample 1 — method: DHFR PCA, deep sequencing; sample: yeast; together with: (+)-ABA 0.0091 µM; baseline: wild-type fitted maximum; direction: higher = stronger binding
Target: ABI1, truncated, D143A, DHFR fusion (Arabidopsis thaliana)
Notes: methotrexate growth selection, single substitutions
Starting sequence: PYL1, truncated, DHFR fusion (Arabidopsis thaliana); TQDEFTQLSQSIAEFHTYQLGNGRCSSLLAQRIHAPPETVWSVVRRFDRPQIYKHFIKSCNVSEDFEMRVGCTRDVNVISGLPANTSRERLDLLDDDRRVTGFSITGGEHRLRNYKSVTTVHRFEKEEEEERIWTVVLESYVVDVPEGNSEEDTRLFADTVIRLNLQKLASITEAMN
Change	relative binding score
L94R	-5.81%
L169Y	-1.86%
F124V	31.7%
T135M	-13.3%
T1C	28.9%
L93E	-4.16%
Y53K	-0.492%
L164A	2.3%

Sample 2 — method: RNA Bind-n-Seq; molecule type: RNA; sample: in vitro; concentration: 200 nM; notes: whole 134-nt RNA, ends assumed; together with: 150 mM LiCl; baseline: input library; direction: higher = stronger binding; all molecules: 7-deaza-guanosine replaces G
Target: Fragile X messenger ribonucleoprotein 1, C-terminal low-complexity region (Fmr1, Mus musculus, UniProt P35922)
Constant ends, left off below: GGGAGUUCUACAGUCCGACGAUC … UGGAAUUCUCGGGUGUCAAGG
Strand	log2 enrichment
AAGUCCUGUGCUACACAUCGUAUGUACCGAAUCGGUUUGGAAAAAAAGGAAAAAGGAAAGUAUUAUGUUACGCCGUUCGGAUCUGCACUU	-2.01
UCCUCAAGUCCUGUGCUACACAUCGUAUGUACCGAAUCGGAGGUUUGGAGGAAAGUAUUAUGUUACGCCGUUCGGAUCUGCACUUCCAGC	-1.63
UGGGAGGUGGAUUUUGUUUAUUUUUUUAGCUCAUUUCCGGGGGUGGGAAUUUUUUUUUAAUAUGUGUCAUGAAUAAAGUUGUUUUUGAAA	0.932
GCGGGAAGUAAAAACAAAUGGAAAUGCUUCGGAUAGUGGCAGGGGUGGGGGUUGCUAAGGAAAGGGUGGGAUGGGAGUGGGUAAAGAGUU	1.75
UAACUUUAGAGGAGGAUCUGAUGGAUAUGGCAGUGGACGUGGAUUUGGGGAUGGGUAUAAUGGGUAUGGAGGAGGACCUGGAGGUGGCAA	1.43
UCAAGUCCUGUGCUACACAUCGUAUGUACCGAAUCGGGGUGGGGAGGGGUGGGGAAAGUAUUAUGUUACGCCGUUCGGAUCUGCACUUCC	-0.566
UAUUGGACACAGUGCCCCGCUGAACAGCAGCUGUUCCCAGCGCCAGAGGACCCCACAGCCACAGUAGGAGCUUUGCGACCCCUACGCAAC	-1.18
UGGCCCUGGUGGCAUGCGGGGAGGAAGAGGUGGCCUCAGGGAUCGUGGUGGUCCCGGUGGAAUGUUCAGAGGUGGCCGUGGUGGAGACAG	-0.301

Single results of other studies — P1: viral docking peptide; CKVKRKLFGSENI
ARF19: ARF19 948-1086 (Arabidopsis thaliana, UniProt Q8RYC8)
Chain of UniProt Q8RYC8 (whole entry, looked up): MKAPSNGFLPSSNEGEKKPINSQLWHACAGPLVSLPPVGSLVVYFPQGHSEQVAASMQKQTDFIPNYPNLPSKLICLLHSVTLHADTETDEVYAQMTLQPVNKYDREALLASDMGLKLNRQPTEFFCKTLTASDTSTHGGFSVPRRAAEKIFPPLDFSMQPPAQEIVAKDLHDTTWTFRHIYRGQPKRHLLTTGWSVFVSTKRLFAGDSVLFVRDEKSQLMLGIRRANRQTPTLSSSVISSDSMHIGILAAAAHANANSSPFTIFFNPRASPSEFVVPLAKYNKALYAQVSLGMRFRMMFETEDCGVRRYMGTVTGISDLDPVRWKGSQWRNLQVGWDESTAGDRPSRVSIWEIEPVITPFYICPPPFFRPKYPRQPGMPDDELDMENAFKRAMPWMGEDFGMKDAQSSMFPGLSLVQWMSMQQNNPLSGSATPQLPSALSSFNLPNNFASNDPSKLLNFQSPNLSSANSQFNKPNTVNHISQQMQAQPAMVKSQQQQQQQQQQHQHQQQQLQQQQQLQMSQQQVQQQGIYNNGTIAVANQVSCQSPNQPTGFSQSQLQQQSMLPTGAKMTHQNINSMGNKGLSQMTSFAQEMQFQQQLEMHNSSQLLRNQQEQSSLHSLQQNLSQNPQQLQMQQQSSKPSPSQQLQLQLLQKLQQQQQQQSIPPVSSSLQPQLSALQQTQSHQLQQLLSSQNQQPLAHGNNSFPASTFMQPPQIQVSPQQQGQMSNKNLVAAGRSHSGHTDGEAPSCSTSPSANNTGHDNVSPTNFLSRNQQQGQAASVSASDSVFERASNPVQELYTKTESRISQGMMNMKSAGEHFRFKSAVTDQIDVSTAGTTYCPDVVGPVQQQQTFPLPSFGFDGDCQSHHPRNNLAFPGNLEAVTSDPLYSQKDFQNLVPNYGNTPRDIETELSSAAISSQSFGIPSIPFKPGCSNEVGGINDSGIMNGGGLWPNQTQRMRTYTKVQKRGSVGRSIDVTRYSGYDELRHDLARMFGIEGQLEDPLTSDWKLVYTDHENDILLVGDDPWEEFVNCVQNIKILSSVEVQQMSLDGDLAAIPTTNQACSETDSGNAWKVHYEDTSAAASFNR
B1: IAA34 (Arabidopsis thaliana, UniProt Q9C5X0); chain MYCSDPPHPLHLVASDKQQKDHKLILSWKKPTMDSDPLGVFPNSPKYHPYYSQTTEFGGVIDLGLSLRTIQHEIYHSSGQRYCSNEGYRRKWGYVKVTMDGLVVGRKVCVLDHGSYSTLAHQLEDMFGMQSVSGLRLFQMESEFCLVYRDEEGLWRNAGDVPWNEFIESVERLRITRRNDAVLPF
B2: IAA33 (Arabidopsis thaliana, UniProt Q9FKM7); chain MNSFEPQSQDSLQRRFHQDNSTTQQPRDTTTPFIPKPASKNHNNSNSSSGAAGRSFQGFGLNVEDDLVSSVVPPVTVVLEGRSICQRISLDKHGSYQSLASALRQMFVDGADSTDDLDLSNAIPGHLIAYEDMENDLLLAGDLTWKDFVRVAKRIRILPVKGNTRQVKRNE
B3: ARF18 482-602 (Arabidopsis thaliana, UniProt Q9C5W9); chain QKKQQTSRSRTKVQMQGIAVGRAVDLTLLKSYDELIDELEEMFEIQGQLLARDKWIVVFTDDEGDMMLAGDDPWNEFCKMAKKIFIYSSDEVKKMTTKLKISSSLENEEYGNESFENRSRG
Substance	tested on	assay	system	setting	how to read	endpoint	result
B1 (IAA34)	ARF19	two-hybrid	–	–	baseline: out of 4 tests, higher = firmer interaction	positive tests	3
P1 K6A	CCNA2, cyclin fold, Cln2 fusion (human)	yeast growth competition, sequencing	yeast	strong parent motif	baseline: not given, higher = stronger binding	normalised enrichment score	4.66
IAA27 (Arabidopsis thaliana, UniProt Q9ZSY8)	ARF19	two-hybrid	–	–	baseline: out of 4 tests, higher = firmer interaction	positive tests	1
B2 (IAA33)	ARF19	two-hybrid	–	–	baseline: out of 4 tests, higher = firmer interaction	positive tests	4
B3 (ARF18 482-602)	ARF19	two-hybrid	–	–	baseline: out of 4 tests, higher = firmer interaction	positive tests	0

Excerpt of the above (sample 2):
Strand	log2 enrichment
UGGCCCUGGUGGCAUGCGGGGAGGAAGAGGUGGCCUCAGGGAUCGUGGUGGUCCCGGUGGAAUGUUCAGAGGUGGCCGUGGUGGAGACAG	-0.301
UCCUCAAGUCCUGUGCUACACAUCGUAUGUACCGAAUCGGAGGUUUGGAGGAAAGUAUUAUGUUACGCCGUUCGGAUCUGCACUUCCAGC	-1.63
